Measurements pooled from the literature.
Each numbered part is a random draw from the data of one study; scales do not carry over between parts.
UniProt Q8N568, sequence (whole entry, looked up): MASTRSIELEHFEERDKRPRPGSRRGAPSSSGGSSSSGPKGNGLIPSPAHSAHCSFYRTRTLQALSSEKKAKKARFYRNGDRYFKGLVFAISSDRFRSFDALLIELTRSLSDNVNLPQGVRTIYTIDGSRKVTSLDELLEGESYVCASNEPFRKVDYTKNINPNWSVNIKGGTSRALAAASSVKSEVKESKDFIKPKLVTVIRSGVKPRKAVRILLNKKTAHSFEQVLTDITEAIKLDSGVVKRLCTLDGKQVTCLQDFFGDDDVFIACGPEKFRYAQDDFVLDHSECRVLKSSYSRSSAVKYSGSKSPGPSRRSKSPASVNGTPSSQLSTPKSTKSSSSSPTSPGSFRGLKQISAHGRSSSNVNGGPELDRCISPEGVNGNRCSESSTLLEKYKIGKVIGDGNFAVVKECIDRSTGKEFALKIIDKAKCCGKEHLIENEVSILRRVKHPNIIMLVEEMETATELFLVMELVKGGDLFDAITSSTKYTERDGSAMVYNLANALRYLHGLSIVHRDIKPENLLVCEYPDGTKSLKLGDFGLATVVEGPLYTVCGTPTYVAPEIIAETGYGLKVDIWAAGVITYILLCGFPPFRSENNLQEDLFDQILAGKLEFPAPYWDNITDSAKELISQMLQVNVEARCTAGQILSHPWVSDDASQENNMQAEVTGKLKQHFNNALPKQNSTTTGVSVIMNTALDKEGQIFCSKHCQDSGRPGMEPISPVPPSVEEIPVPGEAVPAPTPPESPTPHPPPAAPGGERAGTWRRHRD
UniProt Q9Y5S2, sequence (whole entry, looked up): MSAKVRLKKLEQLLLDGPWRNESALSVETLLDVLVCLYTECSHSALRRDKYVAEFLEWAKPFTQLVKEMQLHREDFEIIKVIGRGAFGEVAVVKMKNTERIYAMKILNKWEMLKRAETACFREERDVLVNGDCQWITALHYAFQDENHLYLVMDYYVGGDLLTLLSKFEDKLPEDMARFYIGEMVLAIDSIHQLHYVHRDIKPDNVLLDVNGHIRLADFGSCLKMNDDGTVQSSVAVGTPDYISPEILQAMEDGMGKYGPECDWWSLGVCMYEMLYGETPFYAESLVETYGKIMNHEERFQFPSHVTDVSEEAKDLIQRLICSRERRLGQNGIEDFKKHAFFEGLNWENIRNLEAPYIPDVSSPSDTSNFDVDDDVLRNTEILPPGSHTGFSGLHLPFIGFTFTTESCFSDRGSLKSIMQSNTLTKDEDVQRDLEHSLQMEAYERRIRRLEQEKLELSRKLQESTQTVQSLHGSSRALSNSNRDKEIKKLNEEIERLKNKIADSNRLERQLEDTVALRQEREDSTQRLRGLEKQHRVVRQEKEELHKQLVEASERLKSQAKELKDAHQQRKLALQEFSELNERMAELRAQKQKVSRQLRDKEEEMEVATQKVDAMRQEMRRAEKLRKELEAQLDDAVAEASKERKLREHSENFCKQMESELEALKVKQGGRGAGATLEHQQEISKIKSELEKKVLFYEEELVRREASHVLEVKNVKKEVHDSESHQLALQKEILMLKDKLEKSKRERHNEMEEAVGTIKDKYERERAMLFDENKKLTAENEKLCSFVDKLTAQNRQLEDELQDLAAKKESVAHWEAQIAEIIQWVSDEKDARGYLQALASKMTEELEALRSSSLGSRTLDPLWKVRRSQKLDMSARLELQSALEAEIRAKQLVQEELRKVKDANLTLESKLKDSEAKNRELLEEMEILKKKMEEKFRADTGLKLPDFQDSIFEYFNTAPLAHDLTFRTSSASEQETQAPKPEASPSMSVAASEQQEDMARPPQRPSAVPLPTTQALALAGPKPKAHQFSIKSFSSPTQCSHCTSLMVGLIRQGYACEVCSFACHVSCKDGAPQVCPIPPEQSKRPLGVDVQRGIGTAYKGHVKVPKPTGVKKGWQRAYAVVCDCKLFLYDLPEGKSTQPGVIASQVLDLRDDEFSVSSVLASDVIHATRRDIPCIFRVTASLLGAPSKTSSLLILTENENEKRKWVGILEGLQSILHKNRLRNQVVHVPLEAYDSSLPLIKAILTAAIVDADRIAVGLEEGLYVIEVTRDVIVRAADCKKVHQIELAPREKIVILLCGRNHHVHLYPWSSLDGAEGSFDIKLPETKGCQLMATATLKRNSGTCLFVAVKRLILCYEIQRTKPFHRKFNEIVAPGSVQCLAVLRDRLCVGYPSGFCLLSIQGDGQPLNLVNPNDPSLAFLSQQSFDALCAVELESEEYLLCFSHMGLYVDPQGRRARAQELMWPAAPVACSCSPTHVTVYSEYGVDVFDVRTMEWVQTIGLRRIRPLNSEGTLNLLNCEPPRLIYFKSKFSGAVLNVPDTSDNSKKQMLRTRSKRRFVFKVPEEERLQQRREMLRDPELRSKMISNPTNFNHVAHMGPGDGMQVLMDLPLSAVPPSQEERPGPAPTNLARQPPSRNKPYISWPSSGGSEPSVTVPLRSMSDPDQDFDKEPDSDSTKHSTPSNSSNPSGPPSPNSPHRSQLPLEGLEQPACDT
UniProt Q16539, sequence (whole entry, looked up): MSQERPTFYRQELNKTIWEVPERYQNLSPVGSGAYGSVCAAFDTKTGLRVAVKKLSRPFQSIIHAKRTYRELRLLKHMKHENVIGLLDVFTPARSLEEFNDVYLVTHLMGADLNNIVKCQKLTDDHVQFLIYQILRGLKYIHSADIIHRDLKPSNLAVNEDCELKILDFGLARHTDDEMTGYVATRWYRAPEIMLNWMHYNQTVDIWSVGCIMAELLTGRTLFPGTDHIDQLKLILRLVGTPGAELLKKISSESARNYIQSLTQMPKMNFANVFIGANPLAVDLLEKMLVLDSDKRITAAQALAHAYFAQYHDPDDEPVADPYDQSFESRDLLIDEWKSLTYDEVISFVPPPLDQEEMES
UniProt P42336, sequence (whole entry, looked up): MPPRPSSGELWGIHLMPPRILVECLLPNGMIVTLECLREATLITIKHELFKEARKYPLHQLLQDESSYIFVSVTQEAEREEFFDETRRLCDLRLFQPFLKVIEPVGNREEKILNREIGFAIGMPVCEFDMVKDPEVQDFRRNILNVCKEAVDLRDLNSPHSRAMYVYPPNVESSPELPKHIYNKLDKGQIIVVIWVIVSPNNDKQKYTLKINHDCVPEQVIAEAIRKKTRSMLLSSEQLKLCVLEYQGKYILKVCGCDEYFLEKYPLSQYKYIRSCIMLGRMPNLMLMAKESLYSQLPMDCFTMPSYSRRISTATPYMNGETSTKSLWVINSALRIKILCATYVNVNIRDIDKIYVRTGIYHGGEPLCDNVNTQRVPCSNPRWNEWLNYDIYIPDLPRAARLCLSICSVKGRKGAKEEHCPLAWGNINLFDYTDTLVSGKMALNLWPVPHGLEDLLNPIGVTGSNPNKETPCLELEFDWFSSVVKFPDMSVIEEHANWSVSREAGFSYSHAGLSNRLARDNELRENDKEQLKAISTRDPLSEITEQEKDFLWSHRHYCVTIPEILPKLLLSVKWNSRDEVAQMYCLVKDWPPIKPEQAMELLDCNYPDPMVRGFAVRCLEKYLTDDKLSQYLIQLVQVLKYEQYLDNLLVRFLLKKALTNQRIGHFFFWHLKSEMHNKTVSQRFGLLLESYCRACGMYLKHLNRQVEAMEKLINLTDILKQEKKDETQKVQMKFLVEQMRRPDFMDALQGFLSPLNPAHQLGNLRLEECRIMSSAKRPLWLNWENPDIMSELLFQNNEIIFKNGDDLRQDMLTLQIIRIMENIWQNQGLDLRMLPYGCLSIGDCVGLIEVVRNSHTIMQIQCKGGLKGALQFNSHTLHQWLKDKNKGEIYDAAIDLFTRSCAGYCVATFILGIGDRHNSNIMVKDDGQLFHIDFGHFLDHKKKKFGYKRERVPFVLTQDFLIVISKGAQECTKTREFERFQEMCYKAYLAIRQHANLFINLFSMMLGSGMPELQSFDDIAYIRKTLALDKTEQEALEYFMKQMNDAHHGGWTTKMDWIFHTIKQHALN
UniProt Q9HAZ1, sequence (whole entry, looked up): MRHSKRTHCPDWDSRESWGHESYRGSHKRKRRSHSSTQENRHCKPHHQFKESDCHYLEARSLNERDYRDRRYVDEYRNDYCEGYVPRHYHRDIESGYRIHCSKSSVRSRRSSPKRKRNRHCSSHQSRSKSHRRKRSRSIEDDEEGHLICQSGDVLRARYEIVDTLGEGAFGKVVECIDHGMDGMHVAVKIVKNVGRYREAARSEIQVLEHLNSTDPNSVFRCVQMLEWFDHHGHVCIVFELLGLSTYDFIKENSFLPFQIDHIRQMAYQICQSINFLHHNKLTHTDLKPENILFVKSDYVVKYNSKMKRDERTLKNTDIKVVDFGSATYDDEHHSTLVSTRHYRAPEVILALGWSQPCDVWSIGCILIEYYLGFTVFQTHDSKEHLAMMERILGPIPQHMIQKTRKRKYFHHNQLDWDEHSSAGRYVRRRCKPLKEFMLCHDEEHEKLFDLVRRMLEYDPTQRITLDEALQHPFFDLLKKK

Sample 1
Target: Eukaryotic initiation factor 4A-I (EIF4A1, Homo sapiens, UniProt P60842)
UniProt P60842, sequence (whole entry, looked up): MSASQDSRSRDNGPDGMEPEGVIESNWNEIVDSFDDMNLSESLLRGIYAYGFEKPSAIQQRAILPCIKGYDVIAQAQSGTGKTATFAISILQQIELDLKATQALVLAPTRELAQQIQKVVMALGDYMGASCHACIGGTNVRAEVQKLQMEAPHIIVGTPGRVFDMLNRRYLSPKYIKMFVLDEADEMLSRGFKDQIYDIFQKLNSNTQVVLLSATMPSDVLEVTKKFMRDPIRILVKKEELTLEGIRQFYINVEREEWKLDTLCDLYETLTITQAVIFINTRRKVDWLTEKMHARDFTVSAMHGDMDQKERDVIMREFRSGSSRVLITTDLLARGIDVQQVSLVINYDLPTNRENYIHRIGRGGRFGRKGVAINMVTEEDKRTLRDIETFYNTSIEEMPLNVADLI
Read-out: RNA clamping
Technique: fluorescence polarization
Tested at: concentration not given
Notes: mean of two replicates
Together with: FAM-labelled poly r(AG)8 RNA
Under “fluorescence polarization change”, `COc1ccc([C@@]23Oc4cc(OC)cc(OC)c4[C@]2(O)[C@H](O)[C@H](C(=O)c2cc(C)c(C)o2)[C@H]3c2ccccc2)cc1` is recorded as 15.4 mP.
For `C=CCOc1nc(-c2ccccc2)nc2c1[C@@H](c1ccccc1)[C@]1(c3ccc(OC)cc3)Oc3cc(OC)cc(OC)c3[C@]21O`, “fluorescence polarization change” read 0.7 mP.
Under “fluorescence polarization change”, `CCOC(=O)[C@H]1[C@@H](O)[C@@]2(O)c3c(OC)cc(OC)cc3O[C@@]2(c2ccc(OC)cc2)[C@@H]1c1ccc(Br)cc1` is recorded as 1.6 mP.
`COc1ccc([C@@]23Oc4cc(OC)cc(OC)c4[C@]2(O)[C@H](O)[C@H](C(=O)N(C)C)[C@H]3c2ccccc2)cc1` — result for “fluorescence polarization change”: 58.5 mP.
`CCCN[C@@]12C(=O)[C@H](C(=O)N(C)C)[C@@H](c3ccccc3)[C@]1(c1ccc(OC)cc1)Oc1cc(OC)cc(OC)c12`: “fluorescence polarization change” -4.4 mP.
For `COc1ccc([C@@]23Oc4cc(O)cc(OC)c4[C@]2(O)c2nc4n(c(=O)c2[C@H]3c2ccccc2)CCC4)cc1`, “fluorescence polarization change” read 36.3 mP.
For `COc1ccc([C@@]23Oc4cc(OC)cc(OC)c4[C@@](O)(C2=O)[C@H](c2ccccc2)[C@H]3c2ccccc2)cc1`, “fluorescence polarization change” read 8 mP.
`COC(=O)[C@H]1[C@@H](O)[C@@]2(O)c3c(OC)cc(OCc4ccccc4)cc3O[C@@]2(c2ccc(OC)cc2)[C@@H]1c1ccccc1` — result for “fluorescence polarization change”: 12.1 mP.
For `C#CCNC(=O)COc1cc(OC)c2c(c1)O[C@@]1(c3ccc(OC)cc3)[C@H](c3ccccc3)c3c(nc(-c4ccccc4)[nH]c3=O)[C@@]21O`, “fluorescence polarization change” read 5.7 mP.
`C#CCCCOC(=O)/C=C/Cn1c(-c2ccccc2)nc2c(c1=O)[C@@H](c1ccccc1)[C@]1(c3ccc(OC)cc3)Oc3cc(OC)cc(OC)c3[C@]21O`: “fluorescence polarization change” 12.6 mP.

Sample 2
SMILES: O=C(O)[C@H]1[C@H](Cn2nnc3ccccc3c2=O)CC[C@@H]1C(=O)c1ccc(OCCC2CCOCC2)cc1
Read-out: cell-free assay
Technique: competition with immobilised ligand
Tested at: 1 µM
Receptor-interacting serine/threonine-protein kinase 4 (RIPK4, Homo sapiens, UniProt P57078) — remaining binding: 80%.
The remaining binding was 79% (Serine/threonine-protein kinase DCLK2 (DCLK2, Homo sapiens, UniProt Q8N568)).
For Mitogen-activated protein kinase 12 (MAPK12, Homo sapiens, UniProt P53778): remaining binding read 93%.
It gave 100% for remaining binding (Mitogen-activated protein kinase 7 (MAPK7, Homo sapiens, UniProt Q13164)).
It gave 82% for remaining binding (Serine/threonine-protein kinase/endoribonuclease IRE1 (ERN1, Homo sapiens, UniProt O75460)).
The remaining binding was 100% (Casein kinase II subunit alpha (CSNK2A1, Homo sapiens, UniProt P68400)).
It gave 74% for remaining binding (Activin receptor type-1B (ACVR1B, Homo sapiens, UniProt P36896)).
It gave 88% for remaining binding (Phosphatidylinositol 4-phosphate 5-kinase type-1 alpha (PIP5K1A, Homo sapiens, UniProt Q99755)).
It gave 89% for remaining binding (Ephrin type-B receptor 3 (EPHB3, Homo sapiens, UniProt P54753)).
For Aurora kinase B (AURKB, Homo sapiens, UniProt Q96GD4): remaining binding read 100%.
For Phosphatidylinositol 4,5-bisphosphate 3-kinase catalytic subunit alpha isoform (PIK3CA, Homo sapiens, UniProt P42336): remaining binding read 100%.

Sample 3
Structure (SMILES): COc1ccc(COc2ccc(Cc3cnc(N)nc3N)cc2OC)cc1
Read-out: enzyme activity
Action: inhibitor
Tested at: 0.5 µM
Baseline: control
Dual specificity protein kinase CLK4 (CLK4, Homo sapiens, UniProt Q9HAZ1) — remaining activity: 86.5%.
For G protein-coupled receptor kinase 4 (GRK4, Homo sapiens, UniProt P32298): remaining activity read 106%.
It gave 96.9% for remaining activity (Serine/threonine-protein kinase MRCK beta (CDC42BPB, Homo sapiens, UniProt Q9Y5S2)).
Mitogen-activated protein kinase 14 (MAPK14, Homo sapiens, UniProt Q16539) — remaining activity: 106%.
MAP/microtubule affinity-regulating kinase 4 (MARK4, Homo sapiens, UniProt Q96L34) — remaining activity: 89.7%.
cGMP-dependent protein kinase 2 (PRKG2, Homo sapiens, UniProt Q13237) — remaining activity: 104%.
The remaining activity was 76.1% (Hepatocyte growth factor receptor (MET, Homo sapiens, UniProt P08581)).
For Cyclin-dependent kinase 9, with cyclin K (CDK9, Homo sapiens, UniProt P50750): remaining activity read 102%.
For Mitogen-activated protein kinase 11 (MAPK11, Homo sapiens, UniProt Q15759): remaining activity read 98.7%.
For Calcium/calmodulin-dependent protein kinase type 1B (PNCK, Homo sapiens, UniProt Q6P2M8): remaining activity read 98.4%.
Serine/threonine-protein kinase PAK 3 (PAK3, Homo sapiens, UniProt O75914) — remaining activity: 102%.
It gave 100% for remaining activity (Rho-associated protein kinase 1 (ROCK1, Homo sapiens, UniProt Q13464)).
Dual specificity protein kinase CLK3 (CLK3, Homo sapiens, UniProt P49761) — remaining activity: 98.3%.
The remaining activity was 98.7% (Cyclin-dependent kinase 1, with cyclin A (CDK1, Homo sapiens, UniProt P06493)).
For RAC-beta serine/threonine-protein kinase (AKT2, Homo sapiens, UniProt P31751): remaining activity read 102%.
It gave 95.9% for remaining activity (Serine/threonine-protein kinase PLK3 (PLK3, Homo sapiens, UniProt Q9H4B4)).
It gave 94.7% for remaining activity (Calcium/calmodulin-dependent protein kinase type IV (CAMK4, Homo sapiens, UniProt Q16566)).
For Discoidin domain-containing receptor 2 (DDR2, Homo sapiens, UniProt Q16832): remaining activity read 99.6%.
For Mitogen-activated protein kinase 1 (MAPK1, Homo sapiens, UniProt P28482): remaining activity read 110%.
Tyrosine-protein kinase TXK (TXK, Homo sapiens, UniProt P42681) — remaining activity: 101%.
It gave 98.1% for remaining activity (Serine/threonine-protein kinase Nek3 (NEK3, Homo sapiens, UniProt P51956)).
Ribosomal protein S6 kinase alpha-4 (RPS6KA4, Homo sapiens, UniProt O75676) — remaining activity: 107%.
The remaining activity was 101% (Serine/threonine-protein kinase DCLK2 (DCLK2, Homo sapiens, UniProt Q8N568)).
The remaining activity was 98.6% (Dual specificity mitogen-activated protein kinase kinase 1 (MAP2K1, Homo sapiens, UniProt Q02750)).

Sample 4
Target: Bromodomain-containing protein 4, BD1 (BRD4, Homo sapiens, UniProt O60885)
Read-out: acetyl-histone H4 peptide binding
Technique: AlphaScreen displacement
Tested at: 50 µM
With `Nc1n[nH]c2nc3ccccc3nc12` the inhibition was 11.6%.
`CCOC(=O)C1=C(C)NN=C(Nc2cccc(C)c2C)S1` has an inhibition of 47%.
`CCOc1cc(C=NNc2ccc3nnc(-c4ccc(Br)cc4)n3n2)ccc1O` has an inhibition of 61.6%.
The inhibition of `O=C1NC(=O)C(=Cc2ccc(-c3ccccc3[N+](=O)[O-])o2)S1` is reported as 43.3%.
With `O=[N+]([O-])c1ccc(-c2nc(-c3ccc(F)cc3)c(-c3ccncc3)[nH]2)cc1` the inhibition was 59.6%.
For `Cc1cccc(-c2nc(C(C)(C)C)[nH]c2-c2ccc3c(c2)OCO3)n1`, the inhibition was 36.6%.
`COc1cc(O)c2c(c1)/C=C/C[C@H](O)[C@H](O)C(=O)/C=C\C[C@H](C)OC2=O` gave an inhibition of 12.3%.
With `NC(=O)Nc1sc(-c2ccccc2)cc1C(N)=O` the inhibition was 23.9%.

A few entries again (sample 4):
For `Cc1cccc(-c2nc(C(C)(C)C)[nH]c2-c2ccc3c(c2)OCO3)n1`, the inhibition was 36.6%.
`CCOc1cc(C=NNc2ccc3nnc(-c4ccc(Br)cc4)n3n2)ccc1O` has an inhibition of 61.6%.
With `O=[N+]([O-])c1ccc(-c2nc(-c3ccc(F)cc3)c(-c3ccncc3)[nH]2)cc1` the inhibition was 59.6%.
`COc1cc(O)c2c(c1)/C=C/C[C@H](O)[C@H](O)C(=O)/C=C\C[C@H](C)OC2=O` gave an inhibition of 12.3%.
`CCOC(=O)C1=C(C)NN=C(Nc2cccc(C)c2C)S1` has an inhibition of 47%.
